# Measured values of several laboratories.
# Numbered parts are unrelated; each lists some results of a single study. Positions count from the first letter of the parent shown.

# Study 1
# Target: RING finger protein unkempt homolog, zinc fingers 1-6, GST-SBP tag (UNK, Homo sapiens, UniProt Q9C0B0, residues 30-357)
# UniProt Q9C0B0, sequence (30-357, looked up): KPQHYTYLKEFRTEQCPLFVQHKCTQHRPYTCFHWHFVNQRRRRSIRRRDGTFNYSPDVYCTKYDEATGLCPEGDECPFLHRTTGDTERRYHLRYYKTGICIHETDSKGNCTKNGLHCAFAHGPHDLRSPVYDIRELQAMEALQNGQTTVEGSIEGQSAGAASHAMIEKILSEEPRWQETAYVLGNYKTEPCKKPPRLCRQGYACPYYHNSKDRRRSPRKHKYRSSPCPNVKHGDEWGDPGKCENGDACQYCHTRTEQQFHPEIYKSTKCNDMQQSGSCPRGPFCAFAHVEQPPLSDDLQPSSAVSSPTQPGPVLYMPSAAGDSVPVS
# Method: RNA Bind-n-Seq
# Form: RNA
# Sample: in vitro
# Concentration: not given
# Notes: RNA with constant flanks, human-mouse chimeric sites, ends assumed
# Relative to: input RNA pool
# Direction: higher = stronger binding
# All sequences stand within: GGGAGUUCUACAGUCCGACGAUC … CAACAGAGGAUUGAGCAUCA
Oligonucleotide,bound/input enrichment
GUUGCCAGCUUCCGGUUCCGUUGGGCUCGGUUCUCUCAGUGCUACGUUGUCUCUACGCUCUCAAUCCGCCAUCCAACAAACAUGGAUGAUCAGGUAAAGUUUGUGGAGCCCAGCCGGCAG,0.0749 ratio
CUUUUUAAGAAGAUAUGUGAUGGGAUCUUUUAUACCCCUCAGUACUUAAAUCCUUCUGUGAUUAGCCUUUUGAAACAUAUGCUGCAGGUGGAUCCCAUGAAGAGGGCCGCAAUAAAAGAU,0.464 ratio
CACACCCUCUUCUGCGGGACCCUCAUCUUGCAGGCCCGGGCCUAUGUGGGACCGCACGUCCUGGCAGUGGUGACCCGCACAGGGUUCUGCACAGCCAAAGGGGGCCUGGUGAGCUCCAUC,0.0844 ratio
GUGCCCUUCUCGCUGCUGCGGAGCCCGAGCUGGGAACCAUUCCGGGACGACUGGUACGCACACAGCCGCCUCUUCGAUCAAGCUUUCGGGCUGCCCCGGUUGCCCGAUGAGUGGUCGCAG,0.0712 ratio
UCUGGUCACACUCGUGUGUAUGGUGUUUGCUUUGUGGAUACUUCACUGGGAAAGUUUUUCAUCGGCCAGUUUUCGGAUGACCGCCACUGUUCCAGAUUUAGGACGCUAGUGGCUCACUAU,0.257 ratio
GAAACAUUUAAAUUUAAAGAAGCUGUUGUUCUAGGAAGUACGGACUUUCUAGAAGAUGAUAUAGAGAAAAUUGUAGAAGAACUGGGAAAAGAGUAUAAAGGCAAUGCCUACCAUCUGAUG,1.12 ratio
UUUCUACUGCAGCAGACGAUGCUAAGAAUUAAGGAUCCUAAGAAGUCCCUGGAUUUUUAUACGAGGGUUCUUGGAAUGACCCUCCUGCAGAAGCUUGACUUCCCUGCUAUGAAGUUCUCG,0.101 ratio
UUGAAAACUGAUUCAAGUAAGUUUGAGUAUCACAAUGUUAGCUUUCUAAUUCCAUAAAAGUACUUGGUACAGUUUCUAACCCCACAUACAUCACCCCAGCGCCAUUUGUAAAGAGCAACU,0.616 ratio

# Study 2
# Target: UBE2E2 UBC core domain (UniProt Q96LR5)
# UniProt Q96LR5, sequence (whole entry, looked up): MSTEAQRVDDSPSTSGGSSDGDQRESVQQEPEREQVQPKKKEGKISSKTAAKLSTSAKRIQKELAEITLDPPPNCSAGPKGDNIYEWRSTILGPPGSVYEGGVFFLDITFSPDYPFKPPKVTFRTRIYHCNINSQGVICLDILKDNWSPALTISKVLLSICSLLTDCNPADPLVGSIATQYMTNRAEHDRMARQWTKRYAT
# Method: yeast two-hybrid
# Sample: yeast
# Notes: mostly zero background
# Relative to: not given
# Direction: higher = stronger interaction
# B1: TRIM55 RING domain (UniProt Q9BYV6); chain TMDNLEKQLICPICLEMFTKPVVILPCQHNLCRKCASDIFQASNPYLPTRGGTTMASGGRFRCPSCRHEVVLDRHG
# B2: ANKIB1 RING domain (UniProt Q9P2G1); chain LSPGDLDTSLCDICMCSISVFEDPVDMPCGHDFCRGCWESFLNLKIQEGEAHNIFCPAYDCFQLVPVDIIE
# B3: TRIM3 RING domain (UniProt O75382); chain VQPMDKQFLVCSICLDRYQCPKVLPCLHTFCERCLQNYIPAQSLTLSCPVCRQTSILPEQGV
# B4: RNF112 RING domain (UniProt Q9ULX5); chain QPMAPRELPTCSICLERLRDPISLDCGHDFCIRCFSTHRLPGCEPPCCPECRKICKQKRGLR
# B5: PHF7 RING domain (UniProt Q9BWX1); chain IQHGHVGEESCILCCEDLSQQSVENIQSPCCSQAIYHRKCIQKYAHTSAKHFFKCPQCNNRKEFPQEML
Sequence,lacZ reporter activity
B1 (TRIM55 RING domain),0
MANWVFCNRCFQPPHRTSCFSLTNCGHVYCDACLGKGKKNECLICKAPCRTVLLSK (RNF212 RING domain (UniProt Q495C1)),0
B2 (ANKIB1 RING domain),0
B3 (TRIM3 RING domain),0
B4 (RNF112 RING domain),0
FLKKLEQSFMCVCCQELVYQPVTTECFHNVCKDCLQRSFKAQVFSCPACRHDLGQNYIMI (UHRF2 RING domain (UniProt Q96PU4)),0
B5 (PHF7 RING domain),0

# Study 3
# Target: ABI1, truncated, D143A, DHFR fusion (Arabidopsis thaliana)
# Method: DHFR PCA, deep sequencing
# Sample: yeast
# Notes: methotrexate growth selection, single substitutions
# Together with: (+)-ABA 4.8 µM
# Relative to: wild-type fitted maximum
# Direction: higher = stronger binding
# Starting sequence: PYL1, truncated, DHFR fusion (Arabidopsis thaliana); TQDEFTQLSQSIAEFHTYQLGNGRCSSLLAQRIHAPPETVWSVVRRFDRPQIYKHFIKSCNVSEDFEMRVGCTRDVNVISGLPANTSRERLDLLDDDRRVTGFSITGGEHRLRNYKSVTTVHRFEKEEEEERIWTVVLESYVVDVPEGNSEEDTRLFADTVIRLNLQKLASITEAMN; partner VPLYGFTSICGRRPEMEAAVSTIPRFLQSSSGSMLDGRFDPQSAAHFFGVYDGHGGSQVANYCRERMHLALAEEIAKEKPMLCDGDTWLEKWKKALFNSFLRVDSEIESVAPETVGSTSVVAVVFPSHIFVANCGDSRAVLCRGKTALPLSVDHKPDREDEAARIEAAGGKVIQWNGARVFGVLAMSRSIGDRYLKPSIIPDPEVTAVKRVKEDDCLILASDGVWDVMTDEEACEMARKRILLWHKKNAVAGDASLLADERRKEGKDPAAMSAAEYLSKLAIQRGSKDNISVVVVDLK
Variant,relative binding score
N149H,9.87%
P50V,18.2%
E127T,75.5%
V136Q,10.2%
A30F,74.8%
A170S,31.8%
Y18A,32.2%
T120G,-0.391%
F56P,10.5%
V142A,57.8%
N61K,83.1%
C25I,58%
E152G,51.9%
T1M,74.8%
L28I,70.3%
M176N,52.6%
P146A,40.9%
A84L,6.99%

# Study 4
# Target: RNA binding protein fox-1 homolog 2, RRM domain, GST-SBP tag (RBFOX2, Homo sapiens, UniProt O43251-10, residues 100-194)
# Method: RNA Bind-n-Seq
# Form: RNA
# Sample: in vitro
# Concentration: 365 nM
# Notes: natural RNA segment, single round, ends assumed
# Relative to: no-protein control
# Direction: higher = stronger binding
# All sequences stand within: GGGAGUUCUACAGUCCGACGAUC … UGGAAUUCUCGGGUGCCAA
# Residues (chain): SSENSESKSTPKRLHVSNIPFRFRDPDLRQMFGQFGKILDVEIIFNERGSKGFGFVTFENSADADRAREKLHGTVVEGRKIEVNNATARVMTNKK
Oligonucleotide,RBNS enrichment (R)
UCAGGGUCCUCUGAAAGUUACCCAGGGCUCUCAUCUACUUCCCUAGAGCUUGCAGUGUAAAGUGACAGCUAGUGUGCUCCCUCUCUCCCUCCCUCCCCCUCCUCUCCUCU,0.714
UGUCUCUGCUUCCAUGGCUUCCUGAGAAAGCCCACCUGGGCUGGGCGCGGUGGCUCACGCCUGUAAUCCCAGCACUUUGGGAGGCCAAGGUGGGCGGAUCACAAGGUCAG,0.257
UGGGAGCAAGCGCCUUCUGCAGCACAGGAAGCCGAAGCUGGGGUCAGGUGAGGUCGCUACCCCUGGAGGUCUGGCAUAAGGGCCCCACCCUCAGGUCUCCUACACUGGCC,0.236
CCACAGCUUCCUUUGGAGGGGCAAGAAGUUGGCCUCUCGGUUGACAUUCCAGAGAAAUGGCCAGACUUGCCCCUACCCUUUUGCCCCUGGUGUAGCUGCCUCACAUGAGG,0.291
AUUCAAGAGCUAGGAGGCCAGAGAGAAGACCUUCAGAAAACGGUAAGUUAAAGAAGACAAGUGUCAUCAGACACUUGGGACCCGGGCUCUCUUUAAAGUCUAGUCCCGGC,0.327
UAGAUACAGGUACUUUGAAACCACUAACCCUUCUUUACACGGGGCACAUAGGCCAGUCCGAGUUCUUUCUUAACAAGAUGGCUGUUCUGGCCUGGCCAGCAGUCUGCAUG,0.708
UGCCUUAACAAUCCCCAGACAGUGUUCUCUCAAGCAGUGUUCCAGACUUGUUGGGUGUGAAGAUAAAUGCAUGUAAGAGCAGCCCUUUGGAGGCUGAGGCAGGAGAAUCU,21.5
AUGCUGACGACUGAAGCCCCAUAUAGACCCGUGAUGGGUGGCUGCUGGAAUCCCUUACUCUGGCCCUUGGACUUUGGAAAUGUGGGAGGGGCAGGGAACAAUAUGGGGAA,1.22

# Study 5
# Target: PABPC1L2, full length, GST fusion (mouse, UniProt A0ABA7IW68)
# Method: RNAcompete
# Form: RNA
# Sample: in vitro
# Concentration: 20 nM
# Notes: 7-mer, probes averaged, single round
# Relative to: mean of 7-mers
# Direction: higher = stronger binding
# Residues (chain): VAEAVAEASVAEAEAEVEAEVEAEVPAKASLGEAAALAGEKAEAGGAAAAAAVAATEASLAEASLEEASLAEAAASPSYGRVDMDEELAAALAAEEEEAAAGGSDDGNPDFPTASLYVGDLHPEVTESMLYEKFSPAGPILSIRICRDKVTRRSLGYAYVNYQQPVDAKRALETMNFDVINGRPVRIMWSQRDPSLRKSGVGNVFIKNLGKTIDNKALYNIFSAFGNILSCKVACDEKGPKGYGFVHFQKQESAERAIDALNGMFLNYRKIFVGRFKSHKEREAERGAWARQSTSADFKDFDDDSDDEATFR
Oligonucleotide,7-mer Z-score
CCACAAU,-0.184
UAGAUCU,-0.184
GUCUGCU,-0.389
CAAUGAG,-0.0935
CGAGAAA,1.75
CGGGACU,0.253
CCAGCGA,0.0968
GGAUCCG,-0.112
CGAGGAG,-0.0863
GACUCGC,-0.403
ACACUUG,-0.0971
GAUAUAC,-0.122
GGUCCUC,-0.195
UCUCUUU,-0.347
UGAAAUU,-0.0772
UAGAAUC,-0.0627

# Some of these lines once more (study 4):
Oligonucleotide,RBNS enrichment (R)
AUGCUGACGACUGAAGCCCCAUAUAGACCCGUGAUGGGUGGCUGCUGGAAUCCCUUACUCUGGCCCUUGGACUUUGGAAAUGUGGGAGGGGCAGGGAACAAUAUGGGGAA,1.22
AUUCAAGAGCUAGGAGGCCAGAGAGAAGACCUUCAGAAAACGGUAAGUUAAAGAAGACAAGUGUCAUCAGACACUUGGGACCCGGGCUCUCUUUAAAGUCUAGUCCCGGC,0.327
UGGGAGCAAGCGCCUUCUGCAGCACAGGAAGCCGAAGCUGGGGUCAGGUGAGGUCGCUACCCCUGGAGGUCUGGCAUAAGGGCCCCACCCUCAGGUCUCCUACACUGGCC,0.236
UGUCUCUGCUUCCAUGGCUUCCUGAGAAAGCCCACCUGGGCUGGGCGCGGUGGCUCACGCCUGUAAUCCCAGCACUUUGGGAGGCCAAGGUGGGCGGAUCACAAGGUCAG,0.257
UAGAUACAGGUACUUUGAAACCACUAACCCUUCUUUACACGGGGCACAUAGGCCAGUCCGAGUUCUUUCUUAACAAGAUGGCUGUUCUGGCCUGGCCAGCAGUCUGCAUG,0.708
UCAGGGUCCUCUGAAAGUUACCCAGGGCUCUCAUCUACUUCCCUAGAGCUUGCAGUGUAAAGUGACAGCUAGUGUGCUCCCUCUCUCCCUCCCUCCCCCUCCUCUCCUCU,0.714
CCACAGCUUCCUUUGGAGGGGCAAGAAGUUGGCCUCUCGGUUGACAUUCCAGAGAAAUGGCCAGACUUGCCCCUACCCUUUUGCCCCUGGUGUAGCUGCCUCACAUGAGG,0.291
